Published values gathered from unrelated publications.
Several values in a cell are separate wells, animals, samples, runs or records. ± gives the spread as reported.
Sequence of UniProt P10632 (whole entry, looked up): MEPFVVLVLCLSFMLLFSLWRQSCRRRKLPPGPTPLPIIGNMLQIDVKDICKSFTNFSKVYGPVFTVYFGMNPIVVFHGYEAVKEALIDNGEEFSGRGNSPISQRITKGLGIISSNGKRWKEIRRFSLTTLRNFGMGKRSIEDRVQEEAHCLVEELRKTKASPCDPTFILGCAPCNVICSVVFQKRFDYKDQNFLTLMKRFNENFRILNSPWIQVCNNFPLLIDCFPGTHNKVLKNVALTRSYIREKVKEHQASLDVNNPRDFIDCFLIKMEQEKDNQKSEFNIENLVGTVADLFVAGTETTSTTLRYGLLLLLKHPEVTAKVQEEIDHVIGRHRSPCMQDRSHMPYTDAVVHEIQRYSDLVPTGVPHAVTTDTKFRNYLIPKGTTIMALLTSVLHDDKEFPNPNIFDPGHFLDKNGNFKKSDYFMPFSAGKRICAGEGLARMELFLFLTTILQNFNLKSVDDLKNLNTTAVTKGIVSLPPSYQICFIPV

| SMILES | target or system | test | test system | conditions | how to read | quantity | value |
| --- | --- | --- | --- | --- | --- | --- | --- |
| CCOc1cc(CC(=O)N[C@@H](CC(C)C)c2ccccc2N2CCCCC2)ccc1C(=O)O | Cytochrome P450 2C8 (CYP2C8, Homo sapiens, UniProt P10632) | – | human, plasma | 0.5 mg, day 1, median | – | AUC extrapolated fraction | 2.87% |
| Cc1cc(Nc2cc3ncccc3c(N[C@@H]3C[C@H]4CC[C@@H](C3)N4CCC#N)n2)n[nH]1 | – | – | healthy human subjects | oral, 30 mg, 14 days, multiple ascending dose | – | papular rash incidence | 0% |
| CN1C(=O)[C@@H](NC(=O)c2nnc(Cc3ccccc3)[nH]2)COc2cccnc21 | – | phase I multiple ascending dose | human, male and female | oral, 100 mg, 14 days | – | participants with any AE of special interest | 0% |
| Cc1cc(-c2nccc3c2ccn3CC(=O)Nc2ccc(-c3cnccn3)cn2)ccn1 | – | – | human | 20 mg once daily, multiple ascending dose | – | subjects with Folliculitis adverse event | 0% |
| COc1c(N2C[C@@H]3CCCN[C@@H]3C2)c(F)cc2c(=O)c(C(=O)O)cn(C3CC3)c12 | – | – | male Hartley guinea pigs, anaesthetized | intravenous, 5 mg/kg group, baseline before infusion | – | mean blood pressure | 33 ± 0.2 mmHg |
| COc1ccc2c3c1O[C@H]1C[C@@H](OC(=O)c4ccccc4)C=C[C@@]31CCN(C)C2 | – | – | Swiss albino mouse | intravenous, 3.0 mg/kg | baseline: brain over blood | brain-to-blood AUClast ratio | 19.6 |
| Cc1ccc([C@@H]2O[C@H](CO)[C@@H](O)[C@H](O)[C@H]2O)cc1Cc1ccc(-c2ccc(F)cc2)s1 | – | – | Japanese type 2 diabetes patients | 25 mg, day 4, 24 h urine collection | baseline: baseline | urinary magnesium excretion change | -6.53 mg |
| N#Cc1ccc2c(c1)[C@H]1CCCN(C(=O)c3ccc4[nH]cnc4c3)[C@H]1C2 | – | – | human, male | 10 mg, day 15 | – | DHEA-S level | 5.8 µmol/L |
| CO[C@@H]1[C@H](OC(=O)N2CC(CCN3CCOCC3)C2)CC[C@]2(CO2)[C@H]1[C@@]1(C)O[C@@H]1CC=C(C)C | – | – | humans | subcutaneous, 0.6 mg twice weekly for 4 weeks, day 28 | baseline: baseline | prothrombin time | 0.12 ± 0.34 s |
| Cc1ncsc1-c1ccc(CNC(=O)[C@@H]2C[C@@H](O)CN2C(=O)[C@@H](NC(=O)CCCCCCCCCCNC(=O)O[C@H]2C[C@@H](C)C=C3C=C[C@H](C)[C@H](CC[C@@H]4C[C@@H](O)CC(=O)O4)[C@H]32)C(C)(C)C)cc1 | – | – | C57BL/6 mice, plasma | oral, 60 mg/kg | – | elimination rate constant | 3.61e-05 ± 2.78e-06 s⁻¹ |
| CNC(=O)c1cc(Oc2ccc(NC(=O)Nc3cc(C(C)(C)C)nn3-c3ccc4ncccc4c3)c(F)c2)ccn1 | – | item: worst grade 1 | human | oral, dose not given, cycles 1 and 2, Low AUC(0-4 h) subgroup | – | patients with nervous system disorder AE | 13% |
| C[C@@H]1O[C@@H](O[C@H]2[C@H](Oc3cc(O)c4c(c3)O[C@H](c3ccc(O)cc3)CC4=O)O[C@H](CO)[C@@H](O)[C@@H]2O)[C@H](O)[C@H](O)[C@H]1O | – | – | PBS receiver | 50 mg/mL, 240 min, pH 6.8 | – | Papp | 0.767 ± 0.6 ×10⁻⁶ cm/s |
| N#C[C@@]1(c2ccc3c(N)ncnn23)O[C@H](CO)[C@@H](O)[C@H]1O | – | – | beagle dog, male, plasma | oral, 6.5 mg/kg, capsule | – | elimination rate constant | 5.68e-05 s⁻¹ |
| C#Cc1cccc(Nc2ncnc3cc(OCCOC)c(OCCOC)cc23)c1 | HPrEC normal prostate epithelial cells | MTT | – | 6.3 µg/mL, 2% serum | – | viability | 62.4% |
| COc1cc2[nH]c(C)c(-c3ccc(CO)cc3)c(=O)c2cc1Cl | – | – | PAMPA | pH 7.4 | – | Papp | < 5 ×10⁻⁶ cm/s |
| CC(C)[C@@H](CS(=O)(=O)C(C)C)N1C(=O)[C@@](C)(CC(=O)O)C[C@H](c2cccc(Cl)c2)[C@H]1c1ccc(Cl)cc1 | – | – | FVB mice Abcb1a/b knockout, spinal cord | intravenous, 20 mg/kg | – | AUC(0-inf) | 8510 ± 1010 ng·h/mL |
| O=C(Cn1c(NCCO)nc2ccccc21)c1cccc([N+](=O)[O-])c1 | – | – | – | – | – | pKa | 6.32 |
| COc1ccc([C@@H](O)c2cc(-c3ncnc4cc(N5CCOCC5)ccc34)c(F)cc2Cl)nn1 | – | – | locally advanced rectal cancer patients | 50 mg, added: capecitabine and radiotherapy | – | constipation TEAE incidence | 0% |
| COC(=O)[C@@H]1[C@H]2C[C@H]3c4[nH]c5ccccc5c4CCN3C[C@@H]2CC[C@@H]1O | – | – | rat, plasma | intraperitoneal, 1 mg/kg, 1.5 h | – | concentration | 1100 nM |
| O=C(c1ccc(OCCN2CCCCC2)cc1)c1c(-c2ccc(O)cc2)sc2cc(O)ccc12 | Toxoplasma gondii | parasite growth | HFF, bradyzoite, alkaline-induced | – | – | EC90 | 11.5 µM |
| CC1(C)CCC(CN2CCN(c3ccc(C(=O)NS(=O)(=O)c4ccc(NCC5CCOCC5)c([N+](=O)[O-])c4)c(Oc4cnc5[nH]ccc5c4)c3)CC2)=C(c2ccc(Cl)cc2)C1 | – | – | patients on VA-based chemotherapy | oral, dose not given, 6 h, added: triazole antifungals | baseline: without triazoles | C6 fold change | 1 |
| CCN1/C(=C/C(C)=O)Sc2ccc(F)cc21 | – | – | cynomolgus monkey | oral, 100 mg/kg, 0.5 h post-dose | – | QRS duration | 35 ± 1 ms |
| Cc1ccc(Sc2ccccc2N2CCNCC2)c(C)c1 | – | – | healthy male humans fasted, plasma | oral, 10 mg single | – | mean half-life | 67.6 h |
| CC(C)[N+](C)(CCOC(=O)C1c2ccccc2Oc2ccccc21)C(C)C | – | – | human, both sexes, whole blood | 5 µM, 30 min | – | remaining compound | 58.8% |
| Cc1c2oc3c(C)ccc(C(=O)N[C@@H]4C(=O)N[C@H](C(C)C)C(=O)N5CCC[C@H]5C(=O)N(C)CC(=O)N(C)[C@@H](C(C)C)C(=O)O[C@@H]4C)c3nc-2c(C(=O)N[C@@H]2C(=O)N[C@H](C(C)C)C(=O)N3CCC[C@H]3C(=O)N(C)CC(=O)N(C)[C@@H](C(C)C)C(=O)O[C@@H]2C)c(N)c1=O | – | LC-MS | children with cancer, plasma | dose not given, 26 h | – | maximum plasma concentration | 4.3 µg/L |

| SMILES | target or system | test | test system | conditions | how to read | quantity | value |
| --- | --- | --- | --- | --- | --- | --- | --- |
| Cc1ccc(O)c(-n2nc3ccccc3n2)c1 | – | exposure assessment | human, age 16-21 years | spray sunscreen | – | mean daily dermal uptake | 744 ng/kg body weight/day |
| COc1cc2c3c(n(CCCN4CCOCC4)c(=O)c2cc1OC)-c1cc2c(cc1C3=O)OCO2 | – | – | beagle dogs, female, plasma | intravenous infusion, 646 mg/m^2, 1 h infusion | – | Cmax | 1520 ng/mL |
| [H]/N=C(/N)c1ccc(NCc2nc3cc(C(=O)N(CCC(=O)O)c4ccccn4)ccc3n2C)cc1 | – | – | healthy human, plasma | oral, 75 mg dabigatran etexilate, alone, median | – | Tlast | 36 h |
| C=CCN1CC(=O)N2[C@@H](Cc3ccc(O)cc3F)C(=O)N(Cc3cccc(N4CC(N5CCN(CC)CC5)C4)n3)C[C@@H]2N1C(=O)NCc1ccccc1 | – | – | advanced solid tumour patients | oral, 20 mg twice daily, any grade, dose-escalation | – | treatment-related decreased appetite | 0% |
| CCOc1c([C@H](C)n2nc(C)c3c(N)ncnc32)cc(Cl)c(F)c1[C@@H]1CNC(=O)C1 | – | – | patients with indolent lymphoma, plasma | oral, 20 mg, day 15, monotherapy | – | half-life geometric mean | 8.6 ± 1.95 h |
| COc1cc(N)c(Cl)cc1C(=O)NC1CCN(CCCOc2ccc(F)cc2)CC1OC (centres unmarked) | – | – | male Hartley guinea pigs, anaesthetized | intravenous, 0.3 mg/kg over 10 min, after infusion | – | mean blood pressure | 32 ± 0.2 mmHg |
| C[C@H]1CN(C(=O)CC#N)[C@]12CCN(c1ncnc3[nH]ccc13)C2 | – | – | healthy adult humans | oral, dose not given, all compound groups | – | participants with TEAEs | 18.8% |
| Cn1c(C(F)(F)F)cc(=O)n(-c2cc(Oc3cccnc3OCC(=O)O)c(Cl)cc2F)c1=O | – | – | beagle dog, male, plasma | oral capsule, 1000 mg/kg/day epyrifenacil, week 13, 90-day study | – | Tmax | 5 h |
| O=C(Nc1nc2cccc(-c3ccc(CN4CCS(=O)(=O)CC4)cc3)n2n1)C1CC1 | – | item: vomiting | rheumatoid arthritis patients | oral, 300 mg once daily, 4 weeks, any relatedness | – | treatment-emergent adverse events | 0% |
| C[Si](C)(C)O[Si](C)(C)C | – | – | 1-octanol/water | 7-48 µg/L in water, 20.0 °C | – | log KOW | 5.06 |
| O=C(O)c1c(O)c(-c2ccccc2)nc2ccccc12 | – | – | – | – | – | pKa (acidic) | 3.9 |
| COc1ccc2c(=O)n(C)c(-c3ccccc3)nc2c1 | – | – | Sprague-Dawley rat, skeletal muscle | oral, 30 mg/kg, 4 h | – | tissue concentration | not detected |
| COc1nc(-c2cc(C)c(N[C@@H](C)c3cc(F)cc(F)c3)nn2)ccc1-n1cnc(C)c1 | – | – | rat Sprague-Dawley male, plasma | oral, 25 mg/kg daily for 9 days, 4 h after dose | – | concentration | 13400 ng/mL |
| CC[C@H](C)[C@H](NC(=O)CN)C(=O)N[C@@H](CC(C)C)C(=O)N[C@@H](CC(=O)O)C(=O)N[C@@H](C)C(=O)N[C@H](C(=O)N[C@@H](CCCCN)C(=O)N[C@@H](C)C(=O)N[C@H](C(=O)N[C@@H](C)C(=O)N[C@@H](CCCCN)C(=O)N[C@@H](C)C(=O)N[C@@H](C)C(=O)NCC(N)=O)[C@@H](C)CC)[C@@H](C)CC | – | circular dichroism at 222 nm | 30% TFE | 100 µM | – | mean residue ellipticity | -7090 deg cm2/dmol |
| O=C(OC(C(F)(F)F)C(F)(F)F)N1CCN(Cc2cccc(Oc3ccccc3)c2)CC1 | – | PET blocking study | rhesus monkey, brain HIP | 0.1 mg/kg, compound pretreatment, added: [18F]T-401 tracer | – | Ktrans | 0.0496 min⁻¹ |
| C[C@@H](O)CCOC(=O)C[C@@H](C)O | – | item: heart rate | human | oral, dose not given, 60 min post-dose vs pre-dose, unit not given | baseline: pre-dose | mean change | 4 |
| O=C(c1cccnc1-c1ccncc1)N1CCC(O)(Cc2ccccc2)CC1 | – | – | healthy Japanese adults, plasma | oral, 300 mg twice daily, day 21 | – | AUClast/dose | 6.72 ng·h/mL/mg |
| CCc1cc(C(=O)NC)c2nccc(N3CCc4c(cc(Cn5ccnc5)cc4-c4cn(C)nc4C(F)(F)F)C3=O)c2c1 | – | – | Sprague Dawley rats | oral, 100 mg/kg twice daily, 7 days | baseline: vehicle | serum MCHC change | 2.59% |
| Cc1c(C(=O)O)ccc2c3n(nc12)[C@@H]1[C@H](C3)N(CC2CC2)[C@@]2(C(=O)Nc3cc(Cl)ccc32)[C@H]1c1cccc(Cl)c1F | – | phase Ia trial, item: Anemia | cancer patients | oral, dose not given | – | adverse event incidence | 28% |
| COc1ccc(C[C@@H](C)[C@@H](C)Cc2ccc(OC)c(OC)c2)cc1OC | – | – | beagle dog female, plasma | oral, 300 mg/kg/day, day 1 | – | Cmax | 2690 ± 1650 ng/mL |
| Cc1ncc2c(c1O)COC2c1ccc(Cl)cc1 (centres unmarked) | – | – | – | – | – | pKa (basic) | 4.2 |
| Cc1c(-c2ccc(N3CCc4cccc(C(=O)Nc5nc6ccccc6s5)c4C3)nc2C(=O)O)cnn1CC12CC3(C)CC(C)(C1)CC(OCCNCC[C@H](O)CO)(C3)C2 | – | – | beagle dog, male, anaesthetised | intravenous infusion, 0.3 mg/kg/min, 30 min | baseline: vehicle | QTcV interval change | 10 ms |
| O=C(O)CCC(=O)O.[2H]C([2H])([2H])Oc1cc(C)c2[nH]ccc2c1CN1CC[C@@H](C2CC2)C[C@H]1c1ccc(C(=O)O)cc1 | – | – | healthy Chinese subjects | 400 mg, single ascending dose | – | TEAE urine bacteria positive | 0% |
| Cc1cc(NC(=O)c2cccc(NC(=O)/C=C/CN(C)C)c2)ccc1Nc1nccc(-c2cccnc2)n1 | – | – | rat Wistar male, plasma | 1 µM, 15 min | – | remaining compound | 95.3% and 97.3% |
| O=[N+]([O-])c1ccc2c(c1)S(=O)(=O)C=C2 | Toxoplasma gondii | parasite growth | HFF, bradyzoite, glutamine-induced | – | – | EC90 | 4.02 µM |

Repeated from above:
| SMILES | target or system | test | test system | conditions | how to read | quantity | value |
| --- | --- | --- | --- | --- | --- | --- | --- |
| N#Cc1ccc2c(c1)[C@H]1CCCN(C(=O)c3ccc4[nH]cnc4c3)[C@H]1C2 | – | – | human, male | 10 mg, day 15 | – | DHEA-S level | 5.8 µmol/L |
| O=C(O)c1c(O)c(-c2ccccc2)nc2ccccc12 | – | – | – | – | – | pKa (acidic) | 3.9 |
| Cc1cc(-c2nccc3c2ccn3CC(=O)Nc2ccc(-c3cnccn3)cn2)ccn1 | – | – | human | 20 mg once daily, multiple ascending dose | – | subjects with Folliculitis adverse event | 0% |
| Cc1cc(NC(=O)c2cccc(NC(=O)/C=C/CN(C)C)c2)ccc1Nc1nccc(-c2cccnc2)n1 | – | – | rat Wistar male, plasma | 1 µM, 15 min | – | remaining compound | 95.3% and 97.3% |
